Measured values gathered from unrelated publications.
Parts stem from different laboratories: compare values within a part only.

Sample 1
Target: Phosphate system positive regulatory protein PHO4, full length, GST-tagged (PHO4, Saccharomyces cerevisiae, UniProt P07270, residues 1-312)
Technique: competition protein-binding microarray
Form: double-stranded DNA, one strand shown
Sample: in vitro
Concentration: 2 µM
Setting: whole 60-bp probe, lowest competitor level
Added: Cbf1 competitor, 0.05 µM
Reading: higher = stronger binding
Constant ends, left off below: … GTCTTGATTCGCTTGACGCTGCTG
Construct (chain): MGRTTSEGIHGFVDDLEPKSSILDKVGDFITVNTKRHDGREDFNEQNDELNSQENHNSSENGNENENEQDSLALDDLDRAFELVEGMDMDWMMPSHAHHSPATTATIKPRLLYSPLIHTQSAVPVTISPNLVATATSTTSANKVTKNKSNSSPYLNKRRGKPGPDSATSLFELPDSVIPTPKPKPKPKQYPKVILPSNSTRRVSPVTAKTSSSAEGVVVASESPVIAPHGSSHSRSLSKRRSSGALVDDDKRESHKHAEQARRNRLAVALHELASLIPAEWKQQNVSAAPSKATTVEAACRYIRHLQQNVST
| Oligonucleotide | fluorescence intensity |
| --- | --- |
| CATACCCAACCTTGTCACTTCACTTAAGATATTTGT | 3690 a.u. |
| GTATTATATGATGTATTCGTGCCAGTATCATGCATA | 8010 a.u. |
| CAGGGCACCGGTGCCGTCGTGATGGCCTCGTTGATT | 6040 a.u. |
| CTTTTGATACTCAAATTCGTGCCGAACCGGGAAAGA | 5410 a.u. |
| AAAGCGGTAATTTGCCCTGTGGGTGCAGATATCTAT | 4180 a.u. |
| TAACCTTAATTAATGCCCGTGCCAGGATGATTGCAT | 9870 a.u. |
| CGTCCTAGTGATTGTCACTGTACTTCCATGAGGAAG | 4450 a.u. |
| TAGTTGTGCCTCGACCACGTGAGAAGGCGGTATTCA | 14900 a.u. |
| GCTCTTCATACCCCTCCCGTGGAACTAGTTCGGAAG | 5690 a.u. |
| GAGTTTGGAATCAAACTCGTGGCCGACCTATGGATC | 9700 a.u. |
| TGGTTGCCAGCTCGCTATGTGACGGGCTTAAAGTAC | 3680 a.u. |
| CCAGGGCCAGAGGGGCACGTGGCGCCGGTGAGTGGC | 21000 a.u. |
| TCTTCTTTTTGCCTCCACGGGCCGCAGATCTGTGTT | 7120 a.u. |
| AAAAATCTCGCAGACCATGTGACGGCCGGTACTCCT | 7980 a.u. |
| TAGGTCCAAAACTTGCGCGTGGAAGACGCTGGCCAT | 7190 a.u. |
| ATCGACTCTCCTTGTCACGTTGACTTCTCCTCTGAA | 9710 a.u. |
| CTTCTGTAAATTTGTCACTTAACTTGACGCGCCCCG | 2920 a.u. |
| AATAATGCTGTAAGCCTCGTGACGGCATTTCATTAG | 9750 a.u. |
| CTTCTGTAAATTTGGCGCGTGGGTGGACGCGCCCCG | 10400 a.u. |
| AAGTTACTGCCGCTTTACGTGTCTGTGACGGTGCTT | 4620 a.u. |
| CCGATCAGACCAGCAAACGTGCAAACCACTTATGGA | 10400 a.u. |
| CGCGCTTGTTATACCCACGTTATTATTTGCCCCCAA | 9760 a.u. |

Sample 2
Target: Histone acetyltransferase KAT6A, winged helix 1, GST fusion (KAT6A, Homo sapiens, UniProt Q92794, residues 1-85)
Technique: protein binding microarray
Form: double-stranded DNA, one strand shown
Sample: in vitro
Concentration: not given
Setting: 8-mer, flanks averaged, mean of 2 arrays, mostly near background
Relative to: not given
Reading: higher = stronger binding
Construct (chain): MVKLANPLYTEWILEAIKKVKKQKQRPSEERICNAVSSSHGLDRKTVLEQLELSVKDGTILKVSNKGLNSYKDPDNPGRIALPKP
| Oligonucleotide | E-score |
| --- | --- |
| GTACTCAC | -0.111 |
| CTGCGTGC | 0.0788 |
| AAAATAAA | -0.166 |
| ATAATAAA | -0.02 |
| ACGTCAAG | -0.124 |
| TCGACCAA | -0.185 |
| TACCCCCA | -0.229 |
| ACCCGCGA | 0.307 |
| ACTAGTCT | -0.235 |
| CAACCAGC | -0.131 |
| GACAACAA | -0.178 |
| GAGCATAC | -0.196 |
| CCCCACCC | -0.132 |
| AGGAGCCC | 0.0959 |
| CACGCCCG | 0.361 |
| AAAGTTTA | -0.0846 |
| AAATCATA | -0.0478 |
| ATAGCCAG | -0.227 |
| CTGCCCTA | -0.128 |
| ACGGTCTA | 0.207 |
| ATCTCCCC | -0.0376 |
| ACAATGAC | -0.103 |
| GTACTCTA | -0.0393 |
| GGAGCTCC | 0.0471 |
| ACTCTCCA | -0.237 |

Sample 3
Target: Interferon regulatory factor 3, full length, phosphomimetic (IRF3, Homo sapiens, UniProt Q14653, residues 1-427, S386D/S396D/S398D/S402D/T404D/S405D)
Chain of UniProt Q14653 (whole entry, unmodified, looked up): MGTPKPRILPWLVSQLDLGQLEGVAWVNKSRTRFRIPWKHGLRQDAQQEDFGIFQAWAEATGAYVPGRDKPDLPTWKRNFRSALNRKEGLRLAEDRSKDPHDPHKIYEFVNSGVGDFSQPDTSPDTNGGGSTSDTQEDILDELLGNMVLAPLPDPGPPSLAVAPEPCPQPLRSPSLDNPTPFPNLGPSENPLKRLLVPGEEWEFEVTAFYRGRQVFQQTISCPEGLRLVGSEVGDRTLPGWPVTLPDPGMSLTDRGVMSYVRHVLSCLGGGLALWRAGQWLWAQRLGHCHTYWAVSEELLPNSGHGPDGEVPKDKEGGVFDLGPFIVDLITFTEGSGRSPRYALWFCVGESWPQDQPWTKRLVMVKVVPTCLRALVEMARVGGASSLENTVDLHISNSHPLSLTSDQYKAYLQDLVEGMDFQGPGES
Technique: protein-binding microarray
Form: double-stranded DNA, one strand shown
Sample: in vitro
Concentration: 2540 nM top
Setting: 60-bp whole probe
Added: salmon DNA 0.4 mg/ml
Relative to: random background probes
Reading: higher = stronger binding
Constant ends, left off below: GCCTAGCAC … GTCTTGATTCGCTTGACGCTGCTG
| Oligonucleotide | fitted relative affinity [z-score] |
| --- | --- |
| TTAGGTATCAGTTTCGATTAGTGCTAG | 6.74 |
| TCACTTATTAAGATTGTGACTGTGCTA | 0.298 |
| TTAGGTTCCGGTTTCGGTTCGTGCTAG | 8.61 |
| TGGTTTTACTTTCTATCTCTGTGCTAG | 5.91 |
| TCAGTTTCTGGTTTATTACTGTGCTAG | 4.1 |
| TTAGGTTTCGGGACTGGTTTAGTGCTA | 4.95 |
| TTAGATTTCAGTTCTGATTAGTGCTAG | 3.41 |
| TTAGGTCTCCTTTACCTTTAGTGCTAG | 1.92 |
| ACTAGTGTTTTTCTCCTATTGTGCTAG | 0.859 |
| ATCCTTGTCCCTCCGGGAGCGTGCTAG | 0.342 |
| TTAGGACTGGGGTTTCCGTTAGTGCTA | 1.01 |
| TTAGAACTGGGGTATCGAATAGTGCTA | -0.592 |
| TCAACTTTCCCCTTCCTACTGTGCTAG | 3.11 |
| TTAGAACTGGGGTTACGATTAGTGCTA | -0.441 |
| GACTGTTTCGGGTTTCGGGACGTGCTA | 4.98 |
| GACGATTTCAGTATCAAGACGTGCTAG | 2.15 |

Sample 4
Target: RNA binding protein fox-1 homolog 2, RRM domain, GST-SBP tag (RBFOX2, Homo sapiens, UniProt O43251-10, residues 100-194)
Technique: RNA Bind-n-Seq
Form: RNA
Sample: in vitro
Concentration: 365 nM
Setting: natural RNA segment, single round, ends assumed
Relative to: no-protein control
Reading: higher = stronger binding
Constant ends, left off below: GGGAGUUCUACAGUCCGACGAUC … UGGAAUUCUCGGGUGCCAA
Construct (chain): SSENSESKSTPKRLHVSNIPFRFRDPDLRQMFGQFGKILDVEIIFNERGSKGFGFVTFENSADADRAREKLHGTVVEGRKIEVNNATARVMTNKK
| Oligonucleotide | RBNS enrichment (R) |
| --- | --- |
| GCAGUGAGUGGUUCCAUAUGGCUCUGUUCAAACUGAGCACAUUUUGCCUUUUUUCUUUCUUUUCUUGGGGGGAUGGGAUAAAUGGGAUAUUUUUUAAAGAAUAAAUCCCG | 0.405 |
| GGAUCGCAGCAUCACGAAGGUGGAGAAGCCCUGCUCUAUGGGAAAUGUCCCUGGUAUCUCUGUGGUCAACUAAGAGUGGUUCUACAAAGAUAGUCCUCAGUGAAAACAGG | 0.389 |
| ACGUGGCCCCUUGACCCGGGCGGCCCCGCCGCUUCUUUCCUUCCUGCAGUUCCCAGCCCUCGGAGCCCCCAUCCCUUAUCUUACCCCCACCGCGCUCCCCCAGGAGCGCU | 0.574 |
| UAGGCAGGGCUGGCUUUCUUAGCGUGUAACUUGUGUAGCAGCACAGGGCCCACACUUAGAAGGACCCCACACUUGGUUCAAGGCUCUGCUAUAGCGGAAAUUCUUAAUAA | 0.223 |
| UUAAUAAGGAAUUUUAAUCUAGAAUUUUGAUCUUUGUAAAAAAAGGGGAAAAAGGGUAGUUUGUUUCAUACUUUUGGAAUUUUUUUUCAGUGAAAAAUAACUGAAGUUCA | 0.897 |
| AAUGUAAUGUUUUUACAGCAAUGAUAUGAAAUAUAUUUUAUAAGGAAUAAAAUGGUACAUUGUCUGACUUAGUGUGUGCCUCUCUACUGAUUACUGUCCUGUUCCUACCA | 0.836 |
| CCAAGUGGUAUGUCGGCCAUUUCUCCUUAAAACACCUUCCCUACCUUUCCCAUGUACUCAGUUUAGCUCUCAAAGAAGGGGUGAAUCAUAAAGCCAGUGAAAAUUUCACC | 0.678 |
| CUCCCCUGCUCACUCCAGUCACAUAGAGAAUUGGUGUUUCCCGCAGUGGGGAUGCAGCUGUUGGACAGGUAUUGGGGGCAAGGUUGGUAGGGAGGACAGACUGUCACUUG | 0.248 |
| AAAACAUUAUAAAAAAUUUAAGAUAAAAGGUAUUUUAAAAAGAAAACUACCAUAAAGUUAUAUCCACAUGUAAUUUUUUUGAGGAGAUCGAUAAGAGUAGUAGGCACCAC | 0.527 |
| CUGUCAAAAUACGUUACUUGCAUUUAUUCCAAAUAAUCUCGUUUACUCUUAACUGUUUAUGCAAAUUGUAUAAGGUUUCUUAUGCCCAAGCUUGAAAAAUGAUUUCCCAG | 0.904 |
| UUUUUUGUUUUUGUUUUUUCCAUUGUUCUGCACUUCCACAGUCCAGACCAAUCAAGUCACUUGACAAUAUGCCCCAAGUGACUCCCUUACCCUGUUUUAUAAACCUGUGC | 0.724 |
| CCUGAGUUGCUUUCUGGAUCUGGGGCUUCAGGACUUGCUGCUUCAGUCAGCCUUUAUUAGCACCAAAGACUUUAUGAAGAUCCCACACACAGACACACAUCCCUUCCCGC | 0.55 |

Sample 5
Target: RING finger protein unkempt homolog, zinc fingers 1-6, GST-SBP tag (UNK, Homo sapiens, UniProt Q9C0B0, residues 30-357)
Chain of UniProt Q9C0B0 (30-357, looked up): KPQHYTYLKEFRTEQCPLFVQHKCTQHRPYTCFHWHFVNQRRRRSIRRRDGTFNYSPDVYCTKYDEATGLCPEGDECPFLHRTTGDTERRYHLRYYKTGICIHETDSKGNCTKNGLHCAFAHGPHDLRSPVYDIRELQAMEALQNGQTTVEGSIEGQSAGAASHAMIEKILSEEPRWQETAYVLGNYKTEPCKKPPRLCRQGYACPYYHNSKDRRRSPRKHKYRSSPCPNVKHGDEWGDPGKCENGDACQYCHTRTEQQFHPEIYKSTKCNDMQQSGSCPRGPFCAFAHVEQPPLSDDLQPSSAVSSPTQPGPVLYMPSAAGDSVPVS
Technique: RNA Bind-n-Seq
Form: RNA
Sample: in vitro
Concentration: not given
Setting: RNA with constant flanks, human-mouse chimeric sites, ends assumed
Relative to: input RNA pool
Reading: higher = stronger binding
Constant ends, left off below: GGGAGUUCUACAGUCCGACGAUC … CAACAGAGGAUUGAGCAUCA
| Oligonucleotide | bound/input enrichment |
| --- | --- |
| GAAAGAGAACUAAAGCAACUAAUAGAGAAGAGGAUUGGCAAAGAGAAUUUCAUAGAGAAACUAGGAUUUAUUAGCAAACAUGAGUUAGUAUUCCAGACGUCUCAGAAACCCCAGCCAAAC | 2.06 ratio |
| UUCCCAACCUCCCGCCUCACCCCACCCCCGCUUUUUGGAAAGUUUUUGGCGUUUCUUUUCCUUCCCCAUACAAAGUGAUUACAGUUUCCCCCGCAAGGGUCUAUCGAAGGGCUUGACGGA | 0.564 ratio |
| UGUGCCCCACAAGAUCCUACCUGAGUGGCAGCUGAAGUUGACUCCCUCUCCUUGCCUGAACCCCCCCCUUUUGUUCCCCCAUCCCCCAGUGUCGGCUGAGAUGUUGCCUCUGCACGGUUC | 1.28 ratio |
| AUAUUUCAUAUUGCAAAGAUGUUUACAAGUAUUUUAAUUUAAGUUCAGUGAACUUUUUUGUAGCUGGGUUAAAUCUUUUUAUUUUAGGUAUGGCCUUUGGCAAAGAAACACUGUAUUUUU | 0.684 ratio |
| AAAGAACUACUGAGGCAAGGCAGCAAAUUUAGAAGAAACAUUUCAACAAUAUUGAUAGAGUUAGGAUUCCAAAUUAAAAAGAAAACUAAGACAUUAUAUAUCAACAAAGCCAAUGUGUGG | 13.5 ratio |
| CACGUGUCUGCAGUACUUGAUGUGGACUACUCUCCCACUGGGAAGGAAUUUGUGUCUGCCAGCUUUGAUAAGUCUAUUAGAAUCUUUCCUGUAGACAAAAGUCGAAGCAGGGAAGUGUAU | 0.438 ratio |
| ACUCAGAGAUCCACCUCAAUUGAAGUGGGGAGUAAAGGUGUGGCCACCACACCUAACUUGAUGGAUAUAUAUUUUUUUUAAUAUGAAUCUUCCUGUUCGUCCAGGGAAGAAAGAUUUGUU | 1.13 ratio |
| GGCUGCUGGUGACUGUCCUGGAGUGGCCGUGUCACCGGCCGGAGCGCGGCCAGACUAAUUUUAGAAAAUGCCAAGUAGGAAGUUUGUUGAGGGUGAAGUGGUAAGAGGCCGAUGGCCUGG | 9.79 ratio |
| GAUCAUGGAACCAGAAUAGAAAUGAAGAUGAGAUUACCCAGACGAGCCAAAACAGCUAGCACUAGAAAAAGUAAACUUAACCUUGCAGAGUUCCUUAAUGAAGAUACAAGUUAAGAGAGC | 6.23 ratio |
| UAAAUUAGGGCUGCCGUUUUCUGUUUCUCCCUGGGCUGCAGACAGCUAGAAGAUUUUAUCUAGCUUAUACAAGGCUGCUGGUGUUCCCUCCCUCCCGCCACGAGGGUGUUUUUGGCUGCA | 0.632 ratio |
| UGUGAACUGUCUCUUGAGAUCUAAAAACAAGAUGACUUUUCCUGGCACAUAUUUCAAAGCAUAGACUUUGUUGCCUGCUGCUUAUUGUCUAAUUUACAGGGAUAUUUAAUUUUGUCAGGU | 0.137 ratio |

Repeated from above (sample 3):
| Oligonucleotide | fitted relative affinity [z-score] |
| --- | --- |
| TCAGTTTCTGGTTTATTACTGTGCTAG | 4.1 |
| TTAGGTATCAGTTTCGATTAGTGCTAG | 6.74 |
| TGGTTTTACTTTCTATCTCTGTGCTAG | 5.91 |
| TTAGGTCTCCTTTACCTTTAGTGCTAG | 1.92 |
| ACTAGTGTTTTTCTCCTATTGTGCTAG | 0.859 |
